Assay results gathered from unrelated publications.
Protocols differ between the studies behind these lines. “And” joins repeats or separate records; there may be more than shown. ± gives the spread as reported.

With `Cc1cn([C@H]2C[C@H](N=[N+]=[N-])[C@@H](CO)O2)c(=O)[nH]c1=O` the TC50 was over 0.5 µM (CEM-SS; XTT; 6 days).
For `CN(C)CCNC(=O)c1cccn2c(=O)c3cc4ccccc4cc3nc12`, the CC50 was under 0.28 µM (HeLa; resazurin; 5 days).
`CCCC(=O)OCSc1ccccc1C(=O)NCCn1ccc(=O)c2cc3c(cc21)OCO3` has a TC50 of 32.2 ± 3 µM (CEM-SS; cell viability, XTT; RPMI with 10% FBS; 6 days).
`C[C@H]1[C@H](OC(=O)CCC(=O)O)O[C@@H]2O[C@@]3(C)CC[C@H]4[C@H](C)CC[C@@H]1[C@@]24OO3`: “highest non-toxic concentration” over 50 µM (human primary cardiac fibroblasts; cell viability).
With `COc1ccc2[nH]c([S+]([O-])Cc3ncc(C)c(OC)c3C)nc2c1` (centres unmarked) the mRNA level was 13.8 to 105 fold (human hepatocytes; measured: CYP1A2; concentration not given, 3 days; reference: negative control).
`CCCC(=O)OCSc1ccccc1C(=O)NCCOc1ccnc2ccc(C)cc12` gave a TC50 of 54.3 ± 2.5 µM (CEM-SS; cell viability, XTT; RPMI with 10% FBS; 6 days).
`O=C(CNc1nc(NS(=O)(=O)c2ccccc2)ncc1-c1nc2ccccc2s1)c1ccc(Br)cc1` — result for “maximum non-toxic concentration”: 120 µg/mL (Vero; cytotoxicity; 72 h).
The TC50 of `CCCC(=O)OCSc1ccccc1C(=O)NCCn1cc(C(=O)N2CCN(C)CC2)c(=O)c2cc3c(cc21)OCO3` is reported as over 100 µM (CEM-SS; cell viability, XTT; RPMI with 10% FBS; 6 days).
`C1CCc2c(c(N3CCOCC3)nc3sc4c(N5CCNCC5)nnnc4c23)C1`: “percentage of drug-related material” 32% (cryopreserved rat hepatocytes; UHPLC-MS peak area; 1 µM, 20 min).
`CCC[C@H](CC)Oc1ccc(C(C)(C)C)cc1NC(=O)c1nnn(-c2cc(OC)ccc2OC)c1C` gave a CC50 of over 30 µM (SNU-C4 HiBiT-PXR knock-in; CellTiter-Glo; 72 h, 10% FBS).
For `Cc1ccc(S(=O)(=O)Oc2ccc(NC(=O)c3cnccn3)cc2)cc1`, the viability was 81.6 ± 0.83% (MCF7 non-transfected; MTT; 100 µM, 24 h; reference: untreated).
`O=P1(C2CCCCC2)CCCCC1` gave a viability of 96.3% (SW480; trypan blue; IC50, 72 h).
The turnover of `CN(C(=O)C(C)(C)c1cc(C(F)(F)F)cc(C(F)(F)F)c1)c1cnc(N2C[C@H]3COCCN3C[C@H]2CO)cc1-c1ccc(F)cc1[14CH3]` is reported as 12.4% (cryopreserved human hepatocytes; 5 µM, 1 h, together with: 5 µM cobicistat).
`CC[C@H](C)C(=O)N1CCC(NC(=O)Nc2ccc(OC(F)(F)F)c(F)c2)CC1` gave a percent recovery of 90% (Caco-2; Caco-2 permeability; 10 µM, 60 min, pH 7.4 apical, 7.4 basolateral, mean, together with: verapamil; basolateral to apical).
For `CCCCC(CC)COC(=O)CC(C(=O)OCC(CC)CCCC)S(=O)(=O)O` (centres unmarked), cytotoxicity read “not toxic” (HCE; MTT; up to 50 µM).
The viability of `CC(C)n1ncc2c(C(=O)NCC3(C)CNC3)cc(C3CC3)nc21` is reported as 102% (HeLa; neutral red uptake; 0.33 µM, 2% FBS; reference: positive control).
For `Cc1cc(C(=O)NC(C)(C)COc2cccc3c2C(N)=NS(=O)(=O)N3)cc(C)n1`, “micronucleated binucleated cells” read 0.2% (human peripheral blood lymphocytes; in vitro micronucleus; 500 µg/mL, 4 h, without S9, DMSO 0.4%).
The CC50 of `COc1c(NC(=O)C(=O)c2ccc(OCCN3CCOCC3)c3ccccc23)cc(C(C)(C)C)cc1NS(C)(=O)=O` is reported as over 35 µM (ldlA[mSR-BI] CHO; 24 h).
`CCCC(=O)OCSc1ccccc1C(=O)NCCn1cc(C(=O)NCc2ccccc2)c(=O)c2cc3c(cc21)OCO3` has a TC50 of over 100 µM (CEM-SS; cell viability, XTT; RPMI with 10% FBS; 6 days).
`C[C@H]1O[C@@H](O[C@H]2CC[C@@]3(C)[C@@H](CC[C@]4(C)[C@@H]3C=C[C@]35OC[C@@]6(CCC(C)(C)C[C@H]63)[C@@H](O)C[C@]54C)[C@]2(C)CO)[C@H](O)[C@@H](O[C@@H]2O[C@H](CO)[C@@H](O)[C@H](O)[C@H]2O)[C@H]1O` has a viability of 13% and 38% and 15% (LO2; 15 µM, 24 h).
Under “liver to blood partition coefficient”, `N[C@@H]1c2cccnc2[C@H](OC(=O)N2CCC(n3c(=O)[nH]c4ncccc43)CC2)CC[C@H]1c1cccc(F)c1F` is recorded as 6.1 (cryopreserved human hepatocytes).
For `C[C@H](O)c1cnc(NS(=O)(=O)c2ccc(Cl)c(Cl)c2)nc1`, “metabolism inhibited by ABT and TA” read 7% (cryopreserved human hepatocytes; pan-CYP inhibition; 1 µM, together with: 1 mM 1-aminobenzotriazole and 15 µM tienilic acid).
`COc1cc(O)cc(/C=C/c2cccc(O)c2OC)c1` gave an IC50 of over 200 µM (HaCaT; cytotoxicity, MTT; 48 h, 10% FBS).
`CCCC(=O)OCSc1ccccc1C(=O)NCCn1ccc(=O)c2cc(Cl)ccc21` has a TC50 of 24.6 ± 7.1 µM (CEM-SS; cell viability, XTT; RPMI with 10% FBS; 6 days).
The viability fraction of `COc1cc2ncnc(Nc3ccc(Oc4ccccc4)cc3C)c2cc1OC.O=C(O)C(F)(F)F` is reported as 0.972 (MeWo (NF1); resazurin; 0.3 µM, 72 h, together with: trametinib 0 nM).
For `CC1(C)CC(=O)c2c(C(F)(F)F)nn(-c3ccc(C(N)=O)c(N[C@H]4CC[C@H](O)CC4)c3)c2C1`, the CC50 was 0.45 µM (primary human keratinocytes uninfected; live/dead staining; 20 h).
For `CCCC(CCC)NC(=O)c1ccc2c(c1)OCO2`, “relative mitotic index” read 105% (CHO-WBL; 5.0 mg/mL, 3 h, with rat liver S9).
`Cc1cccc(CNC(=O)c2cn(CCNC(=O)c3ccccc3Sc3c([N+](=O)[O-])ncn3C)c3cc4c(cc3c2=O)OC(F)(F)O4)n1` gave a TC50 of 17.6 µM (CEM-SS; cell viability, XTT; 6 days, RPMI with 10% FBS, together with: no added glutathione).
With `CCC[C@H](CC)Oc1ccc(C(C)(C)C)cc1NC(=O)c1nnn(-c2cc(C)c(OC)cc2OC)c1C` the CC50 was over 30 µM (SNU-C4 HiBiT-PXR knock-in; CellTiter-Glo; 72 h, 10% FBS).
For `CCCC(=O)OCSc1ccccc1C(=O)NCCn1cc(C(=O)NCc2cccc(C)n2)c(=O)c2cc3c(cc21)OC(F)(F)O3`, the TC50 was over 100 µM (CEM-SS; cell viability, XTT; RPMI with 10% FBS; 6 days).
`C=CC(=O)N(C)CCOc1c(N)ncnc1-c1cc(F)cc(NC(=O)c2ccc(C3CC3)cc2F)c1C` has an EC50 of 4.55 µM (human hepatocytes; mRNA induction, inducer, measured: CYP1A2).
For `COc1cccc(-c2n[nH]c(SCc3ccccn3)n2)c1OC`, “micronuclei per binucleated cell” read 0.014 (CHO-WBL; 50 µg/mL, 3 h, together with: rat liver S9).
With `Cc1cccc(C)c1N(CC(=O)Nc1ccc(-c2ncon2)cc1)C(=O)C1CCS(=O)(=O)CC1` the CC50 was over 60 µM (primary human keratinocytes uninfected; live/dead staining; 20 h).
For `O=C1c2ccncc2C(=O)c2c1[nH]c1ccccc21`, mitochondrial respiration read “no inhibition” (PAH hPASMC; Seahorse XFe24; 1 µM, 12 h).
`COc1cc(/C=C/C=C2\SC(=S)NC2=O)cc(OC)c1O` gave a viability of 0.975 and 0.969 (HeLa; CellTiter-Glo; 5 µM, 24 h, unit not given; reference: untreated).

Excerpt of the above:
`O=P1(C2CCCCC2)CCCCC1` gave a viability of 96.3% (SW480; trypan blue; IC50, 72 h).
The turnover of `CN(C(=O)C(C)(C)c1cc(C(F)(F)F)cc(C(F)(F)F)c1)c1cnc(N2C[C@H]3COCCN3C[C@H]2CO)cc1-c1ccc(F)cc1[14CH3]` is reported as 12.4% (cryopreserved human hepatocytes; 5 µM, 1 h, together with: 5 µM cobicistat).
`CC[C@H](C)C(=O)N1CCC(NC(=O)Nc2ccc(OC(F)(F)F)c(F)c2)CC1` gave a percent recovery of 90% (Caco-2; Caco-2 permeability; 10 µM, 60 min, pH 7.4 apical, 7.4 basolateral, mean, together with: verapamil; basolateral to apical).
For `CCCCC(CC)COC(=O)CC(C(=O)OCC(CC)CCCC)S(=O)(=O)O` (centres unmarked), cytotoxicity read “not toxic” (HCE; MTT; up to 50 µM).
The viability of `CC(C)n1ncc2c(C(=O)NCC3(C)CNC3)cc(C3CC3)nc21` is reported as 102% (HeLa; neutral red uptake; 0.33 µM, 2% FBS; reference: positive control).
For `Cc1cc(C(=O)NC(C)(C)COc2cccc3c2C(N)=NS(=O)(=O)N3)cc(C)n1`, “micronucleated binucleated cells” read 0.2% (human peripheral blood lymphocytes; in vitro micronucleus; 500 µg/mL, 4 h, without S9, DMSO 0.4%).
